Published values collected from several papers.
Compare with care: the assays were run in different laboratories. Values joined by “and” are separate records of one study, mostly repeats; a detail may differ. ± marks the error that the study gave.
Chain of UniProt P50750 (whole entry, looked up): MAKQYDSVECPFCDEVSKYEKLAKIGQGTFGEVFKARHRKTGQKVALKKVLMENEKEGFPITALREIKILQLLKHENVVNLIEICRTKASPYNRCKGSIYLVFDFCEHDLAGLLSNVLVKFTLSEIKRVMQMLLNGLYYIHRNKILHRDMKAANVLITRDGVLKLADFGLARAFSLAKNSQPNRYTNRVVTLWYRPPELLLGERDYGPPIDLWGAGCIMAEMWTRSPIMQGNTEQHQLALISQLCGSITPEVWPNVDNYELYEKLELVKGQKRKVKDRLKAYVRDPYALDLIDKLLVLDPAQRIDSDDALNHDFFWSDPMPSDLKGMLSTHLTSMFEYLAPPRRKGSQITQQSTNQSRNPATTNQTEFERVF

| SMILES | target or system | assay | test system | setting | how to read | endpoint | value |
| --- | --- | --- | --- | --- | --- | --- | --- |
| CC[C@H](C)[C@H](NC(=O)[C@H](Cc1ccccc1)NC(=O)[C@H](CCC(=O)O)NC(=O)[C@H](CCCNC(=N)N)NC(=O)[C@H](C)NC(=O)[C@H](C)NC(=O)[C@H](CCC(N)=O)NC(=O)[C@H](CCC(=O)O)NC(=O)[C@H](CCC(=O)O)NC(=O)[C@H](CC(C)C)NC(=O)[C@H](Cc1ccc(O)cc1)NC(=O)[C@H](CO)NC(=O)[C@H](CO)NC(=O)[C@@H](NC(=O)[C@H](CC(=O)O)NC(=O)[C@H](CO)NC(=O)[C@@H](NC(=O)[C@H](Cc1ccccc1)NC(=O)[C@@H](NC(=O)CNC(=O)[C@H](CCC(=O)O)NC(=O)[C@H](C)NC(=O)CCc1c[nH]cn1)[C@@H](C)O)[C@@H](C)O)C(C)C)C(=O)N[C@@H](C)C(=O)N[C@@H](Cc1c[nH]c2ccccc12)C(=O)N[C@@H](CC(C)C)C(=O)N[C@H](C(=O)N[C@@H](CCCNC(=N)N)C(=O)NCC(=O)N[C@@H](CCCNC(=N)N)C(=O)N[C@@H](CCCCNC(=O)COCCOCCNC(=O)COCCOCCNC(=O)CC[C@H](NC(=O)CCCCCCCCCCCCCCCCC(=O)O)C(=O)O)C(=O)NCC(=O)NCC(=O)N[C@@H](CO)C(=O)N[C@@H](CCCCNc1c(NCCCCCN(O)C(=O)CCC(=O)NCCCCCN(O)C(=O)CCC(=O)NCCCCCN(O)C(C)=O)c(=O)c1=O)C(=O)O)C(C)C [zirconium-89 labelled] |  |  | rat, muscle | iv, 3 nmol/kg, 168 h, ex vivo |  | tissue uptake | 0.05 %ID/g |
| COc1ncccc1-c1cnn2ccc(N3CCN(C(=O)OC(C)C)CC3)nc12 |  |  | mouse, formalin test, brain | oral, 30 mg/kg, 60 min |  | drug concentration | 61 µM |
| CCN1[C@@H](C(=O)NC23CCC(C(=O)O)(CC2)CC3)[C@H](c2cccc(Cl)c2F)[C@]2(C(=O)Nc3cc(Cl)ccc32)C12CCCCC2 |  |  | patients with advanced solid tumours | oral, dose not given, all doses |  | any-grade neutropenia incidence | 38.1% |
| COc1ccc(C[C@@H]2NC(=O)[C@H]([C@@H](C)O)NC(=O)[C@@H]3[C@@H]4CCN3C(=O)[C@@H]3Cc5cn(c6ccc(F)cc56)CCCCCCN(Cc5ccc(cc5)CCNC(=O)[C@]5(C)CCCN5C2=O)C(=O)CCC(=O)N[C@@H](C)C(=O)N[C@H](CNC(=O)CCCCC[N+](C)(C)C)C(=O)N[C@@H](Cc2cccc(c2)CNC(=O)CO4)C(=O)N3)cc1 |  | item: Dizziness | humans | concentration not given, Study-001 |  | participants with adverse event | 2% |
| COc1cc(Nc2ncc(F)c(Nc3ccc4c(n3)NC(=O)C(C)(C)O4)n2)cc(OC)c1OC | D(1B) dopamine receptor (DRD5, Homo sapiens, UniProt P21918) |  |  |  |  | IC50 | > 10 µM |
| [NH2][Pt]([NH2])([OH])([OH])([Cl])[Cl] |  | ICP-MS, item: platinum | blood-brain barrier spheroids | 5 µM, 3 h, 37 °C |  | uptake | 0.7 ng/mL |
| COc1ccc2nc3cc(Cl)ccc3c(Nc3cc(CN4CCCC4)c(O)c(CN4CCCC4)c3)c2n1 |  |  | mouse, blood | intraperitoneal, 57 mg/kg |  | basophils | 0.8% |
| N#C/N=C1\SCCN1Cc1ccc(Cl)nc1 |  |  | soil | 0 days, nominal 1.1 |  | recovery | 54% |
| C[C@@H](O)[C@@H](CO)NC(=O)[C@@H](CCCNC(=N)N)NC(=O)[C@@H]1CCCN1C(=O)[C@@H]1CSSC[C@H](NC(=O)[C@H](Cc2ccccc2)NC(=O)CN2CCN(CC(=O)O)CCN(CC(=O)O)CCN(CC(=O)O)CC2)C(=O)N[C@@H](Cc2ccc(O)cc2)C(=O)N[C@@H](Cc2ccccc2)C(=O)N[C@@H](CCC(N)=O)C(=O)N[C@@H](CC(N)=O)C(=O)N1 [gallium-68 labelled] |  |  | Wistar rat, lungs | intravenous, 8 MBq, 30 min, group mean |  | tissue uptake | 0.7 %ID/g |
| Cc1ncnc2c1ccn2[C@@H]1C[C@H](Oc2cc(C(F)F)c(F)c3c2CNCC3)[C@@H](O)[C@H]1O |  |  | patients | grade ≥3 | reference: patients | thrombocytopenia incidence | 6% |
| Clc1ccc(-c2ccccc2)cc1 |  |  | female Sprague-Dawley rats, serum | inhalation, 23 µg/rat, 2 h after exposure |  | sodium | 106 ± 30 mmol/L |
| CCc1ccc(CC/C=C/c2ccc3c(c2)C(=O)CC3)cc1 |  |  | Sprague-Dawley rat, female | oral, 120 mg/kg/day, 14 days |  | CK serum activity | 374 U/L |
| O=S(=O)(Nc1ccccc1)c1ccc(NC(=S)Nc2ccccc2)cc1 |  |  | mouse, male, blood | oral, 20 mg/kg daily, 14 days |  | mean corpuscular haemoglobin concentration | 32.8 g/dL |
| C[C@H]1COCCN1c1nc(NCc2cccnc2C(F)(F)F)c2cccnc2n1 |  |  | BALB/c mice | oral, 10 mg/kg |  | Tmax | 10.2 min |
| O=C(Oc1ccc(Br)cc1)[c-]1cccc1.[Fe+2].c1cc[cH-]c1 |  | cyclic voltammetry | methanol/DMEM 1:1 with TBAPF6 | Pt disk electrode, Ag/AgCl reference, added: scan rate 100 mV/s |  | oxidation potential | 580 mV |
| CC(=O)c1c(C)c2cnc(Nc3ccc(C4CCN(CCS(C)(=O)=O)CC4)cn3)nc2n(C2CCCC2)c1=O |  |  | human, plasma | oral, 75 mg twice daily, day 1, single dose, added: letrozole |  | k_el | 3.89e-05 s⁻¹ |
| CC[C@H](C)[C@@H]1NC(=O)[C@@H]2CCCN2C(=O)[C@H](CC(C)C)NC(=O)[C@H](CC(C)C)NC(=O)CNC(=O)[C@@H](NC(=O)[C@@H](NC(=O)[C@H](CC(=O)O)NC(=O)CNC(=O)[C@@H](NC(=O)[C@H](C)NC(=O)CNC(=O)[C@H](CCCCN)NC(=O)[C@H](CC(C)C)NC(=O)[C@H](CC(C)C)NC(=O)[C@H](CCCCN)NC(=O)CNC(=O)[C@@H](NC(=O)[C@@H](N)CC(C)C)C(C)C)C(C)C)C(C)C)CSSC[C@@H](C(=O)O)NC1=O |  | RNA-seq, item: Rnf5 | mouse, traumatic brain injury model, frontal cortex and hippocampus | dose not given | reference: TBI alone | log2 fold change | -0.808 |

| SMILES | target or system | assay | test system | setting | how to read | endpoint | value |
| --- | --- | --- | --- | --- | --- | --- | --- |
| COc1cc2c(Oc3ccc4[nH]c(C)cc4c3F)ccnc2cc1OCC1(N)CC1 |  |  | paediatric recurrent refractory sarcoma | 8 mg |  | grade 1 or 2 TBIL elevation | 0% |
| Oc1ccccc1-c1nc(-c2cccs2)c(-c2cccs2)[nH]1 | Vero-E6 | CellTiter-Glo ATP |  | 72 h, retest 8-point duplicates | reference: DMSO 0%, hyamine -100%, more negative, more toxic | maximum response | -7.09% |
| CC(C)=CC1C(C(=O)OC(C#N)c2cccc(Oc3ccccc3)c2)C1(C)C (stereo not shown) |  | item: CYP3A5 | human, age 1 year |  |  | enzyme contribution to clearance | 0.25% |
| COc1cccc(Oc2ccccc2NC(=O)CNC(=O)c2cccc3ccccc23)c1 |  |  | esterase-deficient SCID mice, male, blood | oral, 100 mg/kg/day, 14 days, toxicity study |  | mean corpuscular hemoglobin concentration | 32.6 g/dL and 31.2 g/dL and 34.1 g/dL |
| [O-][S+]1CCc2nc(N3CCC(c4ncc(Cl)cn4)CC3)nc(NC3(CO)CCC3)c21 (stereo not shown) |  | phase I trial | healthy male volunteers, blood | oral, 6 mg twice daily, after last treatment |  | creatine kinase | 309 U/L |
| O=C(Nc1ccccc1)C1CCN(C(=O)Oc2cccnc2)CC1 |  | item: reproductive and breast disorders | healthy women | oral, 60 mg, 7 days |  | subjects with adverse event | 14.3% |
| CCCN(CCC)CCCNC(=O)C1CCCN(Cc2nc(-c3ccc(Cl)cc3)oc2C)C1 (stereo not shown) | Vero-E6 | CellTiter-Glo ATP |  | 72 h, retest 8-point duplicates | reference: DMSO 0%, hyamine -100%, more negative, more toxic | maximum response | -16.5% |
| C[C@@H]1OC(=O)NN=C1c1ccc(-c2ccc(F)cc2)c(C(F)(F)F)c1 |  | phase I trial, item: alkaline phosphatase increased | human patients | 10 mg load, 0.5 mg daily, all grades |  | patients with TEAE | 0% |
| C[C@]1(CO)Cc2ncn(-c3ccc(C#N)c(Cl)c3)c2C(=O)O1 |  |  | healthy Japanese adults, plasma | 20 mg single dose |  | Tmax | 48 min |
| COc1cc(C2C3=C(COC3=O)N(CCO)c3cc4c(cc32)CCC4)cc(OC)c1OC (stereo not shown) |  |  | female C57BL/6 mice | intraperitoneal, 400 mg/kg, 72 h, single dose, mean |  | body weight | 21.3 g |
| N[C@@H]1c2ccccc2OC12CCN(c1cnc3c(N4CCCc5ncccc54)n[nH]c3n1)CC2 |  |  | human | 60 mg once daily, cycle 2 |  | left ventricular ejection fraction | 45% |
| O=C(c1ccc(F)c(F)c1Nc1ccc(I)cc1F)N1CC(O)([C@@H]2CCCCN2)C1 |  |  | human | oral, 1.33 mg/kg |  | onset day of first chorioretinopathy DLT | 8 days |
| CC(C)C[C@H](NC(=O)[C@H](CCCCN)NC(=O)OCC1c2ccccc2-c2ccccc21)C(=O)N[C@H](C(=O)N[C@@H](Cc1ccccc1)C(=O)N[C@@H](Cc1ccccc1)C(=O)N[C@@H](CCCCN)C(=O)NCC(=O)N[C@@H](Cc1ccccc1)C(=O)N[C@@H](C)C(=O)N[C@@H](Cc1c[nH]c2ccccc12)C(=O)N[C@@H](CC(N)=O)C(=O)N[C@H](C(=O)N[C@H]1CSSC[C@@H](C(=O)N[C@@H](Cc2c[nH]cn2)C(=O)N[C@@H](CCCNC(=N)N)C(=O)N[C@@H](CCCNC(=N)N)C(=O)N[C@@H](C)C(=O)N[C@@H](CC(N)=O)C(N)=O)NC(=O)[C@H](C(C)C)NC(=O)[C@H](CCCNC(=N)N)NC(=O)[C@H](C(C)C)NC(=O)CNC(=O)[C@H](CC(N)=O)NC(=O)[C@H](CCCNC(=N)N)NC(=O)[C@H](Cc2ccc(O)cc2)NC(=O)[C@H](C(C)C)NC1=O)C(C)C)C(C)C |  |  | ICR mouse, blood | intramammary, 5 mg/kg, day 5, 3 d dosing |  | haemoglobin | 125 ± 3.56 g/L |
| CN[C@@H](C)C(=O)N[C@H]1CN(S(=O)(=O)c2cccc(S(=O)(=O)N3CC[C@H]4CC[C@@H](C(=O)NC(c5ccccc5)c5ccccc5)N4C(=O)[C@@H](NC(=O)[C@H](C)NC)C3)c2)CC[C@H]2CC[C@@H](C(=O)NC(c3ccccc3)c3ccccc3)N2C1=O |  |  | patients advanced solid tumours | dose not given, all grades all doses |  | treatment-related pruritus | 3.6% |
| CN1CC[C@@H](c2c(O)cc(O)c3c(=O)cc(-c4ccc(C(F)(F)F)cc4Cl)oc23)[C@@H]1CO |  | item: Hypertension | B-cell malignancies | oral, 150 mg, intermittent dosing |  | patients with adverse event | 33.3% |
| CO[C@H]1C[C@@H]2CC[C@@H](C)[C@@](O)(O2)C(=O)C(=O)N2CCCC[C@H]2C(=O)O[C@H]([C@H](C)C[C@@H]2CC[C@@H](OC(=O)NCCOCCOCCOCCOCCOCCOCCOCCOCCC(=O)N3CCc4cc(Cn5nc(-c6ccc7oc(N)nc7c6)c6c(N)ncnc65)ccc4C3)[C@H](OC)C2)C[C@@H](O)[C@H](C)/C=C(\C)[C@@H](O)[C@@H](OC)C(=O)[C@H](C)C[C@H](C)/C=C/C=C/C=C/1C |  | phase 1 dose escalation | advanced solid tumour patients | intravenous, 10 mg weekly, any grade |  | deaths due to TRAEs | 0% |
| C[C@H]1CN(c2n[nH]c3nc(N[C@H]4CC[C@H](NS(=O)(=O)CCC(F)(F)F)CC4)ncc23)CCO1 | Cyclin-dependent kinase 9 (CDK9, Homo sapiens, UniProt P50750) | Kinobeads competition | HEK293, K562, placenta lysate | 0.8 µM, unit not given | reference: vehicle | remaining binding | 0.98 |

A few entries again:
| SMILES | target or system | assay | test system | setting | how to read | endpoint | value |
| --- | --- | --- | --- | --- | --- | --- | --- |
| COc1ccc2nc3cc(Cl)ccc3c(Nc3cc(CN4CCCC4)c(O)c(CN4CCCC4)c3)c2n1 |  |  | mouse, blood | intraperitoneal, 57 mg/kg |  | basophils | 0.8% |
| C[C@H]1CN(c2n[nH]c3nc(N[C@H]4CC[C@H](NS(=O)(=O)CCC(F)(F)F)CC4)ncc23)CCO1 | Cyclin-dependent kinase 9 (CDK9, Homo sapiens, UniProt P50750) | Kinobeads competition | HEK293, K562, placenta lysate | 0.8 µM, unit not given | reference: vehicle | remaining binding | 0.98 |
